Published values from different studies.
Parts stem from different laboratories: compare values within a part only.

Block 1
Target: Sal-like protein 4, full length isoform A (SALL4, Homo sapiens, UniProt Q9UJQ4, residues 1-1053)
Chain of UniProt Q9UJQ4 (whole entry, looked up): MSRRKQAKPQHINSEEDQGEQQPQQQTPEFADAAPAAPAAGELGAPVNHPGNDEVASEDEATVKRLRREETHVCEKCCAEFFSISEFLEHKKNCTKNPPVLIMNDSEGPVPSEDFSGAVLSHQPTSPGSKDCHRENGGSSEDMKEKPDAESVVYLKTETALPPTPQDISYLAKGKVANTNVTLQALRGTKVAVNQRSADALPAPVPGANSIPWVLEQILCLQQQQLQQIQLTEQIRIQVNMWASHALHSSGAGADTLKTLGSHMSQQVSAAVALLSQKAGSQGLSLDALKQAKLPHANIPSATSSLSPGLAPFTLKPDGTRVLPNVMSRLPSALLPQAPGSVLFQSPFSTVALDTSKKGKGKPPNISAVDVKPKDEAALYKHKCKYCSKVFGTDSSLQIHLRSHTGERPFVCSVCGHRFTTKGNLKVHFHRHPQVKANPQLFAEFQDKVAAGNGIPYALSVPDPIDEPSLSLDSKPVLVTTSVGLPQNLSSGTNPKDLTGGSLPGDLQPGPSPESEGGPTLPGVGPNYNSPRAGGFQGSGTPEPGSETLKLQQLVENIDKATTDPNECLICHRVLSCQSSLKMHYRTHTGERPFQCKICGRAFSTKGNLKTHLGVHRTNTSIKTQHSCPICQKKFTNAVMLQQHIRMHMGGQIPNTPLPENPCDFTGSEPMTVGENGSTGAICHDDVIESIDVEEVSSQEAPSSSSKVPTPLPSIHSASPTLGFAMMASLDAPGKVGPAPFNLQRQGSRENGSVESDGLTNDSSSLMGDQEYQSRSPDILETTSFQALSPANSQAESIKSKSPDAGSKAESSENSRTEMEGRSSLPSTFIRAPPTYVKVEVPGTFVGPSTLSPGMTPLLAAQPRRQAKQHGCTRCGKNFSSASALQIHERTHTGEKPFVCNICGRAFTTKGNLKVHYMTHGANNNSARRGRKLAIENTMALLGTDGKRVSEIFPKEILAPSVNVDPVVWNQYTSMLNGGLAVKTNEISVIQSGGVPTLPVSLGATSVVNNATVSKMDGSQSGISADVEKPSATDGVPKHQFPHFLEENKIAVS
Method: universal PBM
Molecule type: double-stranded DNA, one strand shown
Medium: in vitro
Tested at: 600 nM
Notes: 8-mer, flanks averaged, mean of replicates
Reading: higher = stronger binding
Oligonucleotide | E-score
CCAGTCTA | -0.231
GGCAGCTA | -0.106
TGGTCGAA | -0.168
CCAGCGAA | -0.25
CCGGCTTA | -0.219
CACGCCTC | -0.19
GAGGGGCA | -0.214
CATTTCCA | 0.233
ACATTCAG | 0.0452
ACAGGTCA | -0.0463
CACATGAG | -0.0546
GGTCTATA | 0.193
CGTAAACA | 0.0916
AATTGAAG | 0.147
CAATCACC | -0.00822
CCACCTAC | 0.0326
ATTTGGTG | 0.193
CGGACCAC | -0.169
CTTATCAC | 0.014
CCGCGAGC | -0.368
AAGGTAGT | 0.14
CTCACACC | -0.221

Block 2
Target: RNA binding protein fox-1 homolog 2, RRM domain, GST-SBP tag (RBFOX2, Homo sapiens, UniProt O43251-10, residues 100-194)
Method: RNA Bind-n-Seq
Molecule type: RNA
Medium: in vitro
Tested at: 365 nM
Notes: natural RNA segment, single round, ends assumed
Reference: no-protein control
Reading: higher = stronger binding
Shared flanks, not repeated: GGGAGUUCUACAGUCCGACGAUC … UGGAAUUCUCGGGUGCCAA
Residues (chain): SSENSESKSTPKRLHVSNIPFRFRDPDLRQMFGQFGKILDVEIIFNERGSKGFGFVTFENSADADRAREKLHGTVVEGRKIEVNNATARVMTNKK
Oligonucleotide | RBNS enrichment (R)
CUGUCUGCAGUAGGACACUGAAAACAGCAAGAACUUCGGGGUGAACACCCGCUGAUCCUUUAACAAGGAUUUCUGGCAGGAAACUCACAAAAAGGAGAACUGAAAAUUUA | 0.257
AAGAUUUGAAAUUUGUUAAAAUGAGAAAUACCUUUGGAAGCCAUACAUAUGAAAAUCAGGAGGAAAUUAAGAAAAAAGAUGAAGAUAUUCAGAGGAGUUAUACUUUGAGG | 0.794
CUGUAAAUGGGGGCUCCAUUAGUUCUGCUGCCGAGACUAAUAAAGAUUUGGUUGGCUCUAGCAGUAACUGUGGCUUGCUUUGUUCCCCCAGAAGGCCCUGUUUCCCUCUC | 0.637
GCGGUGGUGGACCUCACCUUCAAUCCAAGUUUUCAAAGAUAUUUUCUCAAUAACUCUAAAAGGGAGGUGCUUGGGAUUAAGGUGACAGUCCACUUGAUCCUUUUCUUUGU | 0.467
UGUGUUUGGAACAAGAAGCAUCUCAGCAUUCUGUGAGAUCUGCAUGGAUCCUGUGGGUGGAGUCAGCAGGAACAAAGGGUUUUCCAUGGUAUUGAUGCUACCUCAGGUCU | 3.21
UCUGUUUUUGUAGACGAAUAACCAUCAACAUGACAACAAAAUUCAUUGGGGUCUACCAGCGUGCAUUCCAUUUCCCACUGACCAUGCAGGUGCACGUCGCGGAAAUACUG | 1.17
GAGGAAGAUCCUUGGUUAGCGAUGAUCUUGGAGGUGGACUAAGUCCAGAGCCAUCCCUGAAGCCAGGUGACUGUCCCAAGGUCUUCCCUCCCGGGAGCCCAACCUUUCGA | 0.194
UAAUUUUUGUAUUUUUAAUAAAGACGGGGUUUCAUCAUGUUGGCCAGGGUGGUCUCGAUCUCUUGACCUCGUGAUCCGCCCGCCUCAGCAUCCCAAAGUGCUGGGAUUAC | 0.299
GGAAGCAGUGAGCAAAACCUGUGGUUAUUAACGGAAAAGUCUUUUAUUACAAAGUCAAUUAAAACUUUUCAUUCAAGGUUUUUGAGCCAAACUAGAAGUUGAGAUUGUAA | 0.378
GUUUCUUCUAUUGUAGACACCAAGUCUCCCUGAGAUUCCUGAUGGGGUAUUACCUACCAAGAUAAUGAGAGCUUCUAAGGUUGAGGGGAGCUGAAUAGUUUGCACAAGAA | 1.02
UGGUGGAAACGUGGGCUUUCUCCAAACCAAGGCCUGAGUUUCCUGUAAGGGUCCUCUGUUUUUGAUUCACCCAAAAGUCUGCAAACCCCCAGCAUCUCUGCUCUGGCCAG | 0.388
UGGGCCUAGGAGAGGCUUUGGACCUGGGAGCCACACCUAGGAGCAAAGUCUCACCCCUUUGUCUACGUUGCUUCCCCAAACCAUGAGCAGAGGGACUUCGAUGCCAAACC | 0.32

Block 3
Target: PABPC1L2, full length, GST fusion (mouse, UniProt A0ABA7IW68)
Method: RNAcompete
Molecule type: RNA
Medium: in vitro
Tested at: 20 nM
Notes: 7-mer, probes averaged, single round
Reference: mean of 7-mers
Reading: higher = stronger binding
Target sequence (chain): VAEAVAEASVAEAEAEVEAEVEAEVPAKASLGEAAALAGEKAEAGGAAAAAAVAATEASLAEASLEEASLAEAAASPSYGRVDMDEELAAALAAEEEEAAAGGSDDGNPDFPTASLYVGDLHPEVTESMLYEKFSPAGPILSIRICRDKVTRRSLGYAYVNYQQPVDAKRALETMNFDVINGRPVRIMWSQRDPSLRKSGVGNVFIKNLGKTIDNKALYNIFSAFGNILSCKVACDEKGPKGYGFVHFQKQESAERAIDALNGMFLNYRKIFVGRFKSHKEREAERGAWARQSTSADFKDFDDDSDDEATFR
Oligonucleotide | 7-mer Z-score
UGAGAAC | -0.209
UGGGAUU | -0.0482
UGCUGCA | -0.325
GGCCGUG | -0.15
GUCCGAU | -0.186
GGGAAGU | 0.0497
CCUGCAC | -0.209
UAAAUAU | 1.74
ACGAGUG | 0.00254
UAUCGAA | -0.0645
UGGUACC | -0.26
CUCGUGU | -0.42
GAUCCUA | -0.159
UAAGGGA | 0.193
UGUGCCA | -0.327
UCAACUA | -0.286
UCCCGGA | -0.19
GUAAUAA | 0.0352
ACGCCCA | -0.277
AAAGAAA | 4.15
GUUUUGG | -0.3
GUAUGUA | 0.0261
GCAAUGC | -0.113
UGCUUCC | -0.374
ACUUUGG | -0.151

Block 4
Target: Centromere-binding protein 1, full length, N-terminal tag (CBF1, Saccharomyces cerevisiae, UniProt P17106, residues 1-351)
Chain of UniProt P17106 (whole entry, looked up): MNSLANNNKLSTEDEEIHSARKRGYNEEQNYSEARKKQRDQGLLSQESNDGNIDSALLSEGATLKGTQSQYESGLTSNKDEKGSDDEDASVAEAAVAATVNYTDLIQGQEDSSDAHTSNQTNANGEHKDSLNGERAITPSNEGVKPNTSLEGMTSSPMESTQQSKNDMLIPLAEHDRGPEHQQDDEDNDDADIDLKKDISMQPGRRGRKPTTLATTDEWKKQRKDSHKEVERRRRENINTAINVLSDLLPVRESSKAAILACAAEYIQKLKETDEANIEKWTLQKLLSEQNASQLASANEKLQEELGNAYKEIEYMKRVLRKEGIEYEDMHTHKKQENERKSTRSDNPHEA
Method: protein-binding microarray
Molecule type: double-stranded DNA, one strand shown
Medium: in vitro
Tested at: 0.8 µM
Notes: whole 60-bp probe, no competitor
Reading: higher = stronger binding
Shared flanks, not repeated: … GTCTTGATTCGCTTGACGCTGCTG
Oligonucleotide | fluorescence intensity
CTAATATATATGACGAATGTGACCAACATAAGTTTC | 678 a.u.
GAACTCCTTACGCCGCATGTGATAATATACTGCTAG | 1310 a.u.
GAATGTTCCTCGATTCACGTGCTCAGTATCTTGTAG | 7110 a.u.
GAAAGGGCATTATGTAGCATCACCCGGAAGAACTAG | 508 a.u.
TGTACGAAGCTATATCAGGTGAATATAGTAGTTAGG | 696 a.u.
GAAGCTCGCACTGCGCAGGTGACGGTAAAGAAATAG | 882 a.u.
CTACTATGCACTGATGACGTCACTGTCAATCGCTTC | 560 a.u.
CTAAATTGTTTTTATCAGGTGTTTCCCTATTTATTC | 805 a.u.
CTATTTCTTTACCGTCATGCACGTGCGCCGCGATTC | 11700 a.u.
GAAACAGTTATTTTTCATGTGTTATGTTTTTCATAG | 599 a.u.
GAACCACCAGATTATCACGCTATAAATTTTAAATAG | 682 a.u.
CTATTCCACCTTTGTCAGCTGTTCTGTTCCTATTTC | 687 a.u.
CTAGGCATAAAGAGGCACATGCGTCGTTTGTAGTTC | 699 a.u.
GAAGGCCTCTTTTCTGACGTGAATGTCACATGTTAG | 2880 a.u.
CTAGCCTTCCCGTCGCGCGTGATTTGGAGATACTTC | 960 a.u.
CTAATTAATCCTACGTGACTTACACATATGCCATTC | 945 a.u.
TGTACGAAGCTATGTAGTCACGTTATAGTAGTTAGG | 2500 a.u.
GAACTTCCATTAAGTCAGATGACTGTTTCTCAATAG | 2020 a.u.
CTATATAAATAATAAAACATCATGTGCATTTTTTTC | 1860 a.u.
CTATTATATCCCTTTCATATGATTAACAAAACTTTC | 596 a.u.

For quick reference, copied from above (block 3):
Oligonucleotide | 7-mer Z-score
UCAACUA | -0.286
UCCCGGA | -0.19
GUAAUAA | 0.0352
ACGCCCA | -0.277
AAAGAAA | 4.15
